{"data": "Measurements collected from several papers", "target": "Dual specificity tyrosine-phosphorylation-regulated kinase 2 (DYRK2, Homo sapiens, UniProt Q92630)", "Residues used in one study (Q92630 1-601)": "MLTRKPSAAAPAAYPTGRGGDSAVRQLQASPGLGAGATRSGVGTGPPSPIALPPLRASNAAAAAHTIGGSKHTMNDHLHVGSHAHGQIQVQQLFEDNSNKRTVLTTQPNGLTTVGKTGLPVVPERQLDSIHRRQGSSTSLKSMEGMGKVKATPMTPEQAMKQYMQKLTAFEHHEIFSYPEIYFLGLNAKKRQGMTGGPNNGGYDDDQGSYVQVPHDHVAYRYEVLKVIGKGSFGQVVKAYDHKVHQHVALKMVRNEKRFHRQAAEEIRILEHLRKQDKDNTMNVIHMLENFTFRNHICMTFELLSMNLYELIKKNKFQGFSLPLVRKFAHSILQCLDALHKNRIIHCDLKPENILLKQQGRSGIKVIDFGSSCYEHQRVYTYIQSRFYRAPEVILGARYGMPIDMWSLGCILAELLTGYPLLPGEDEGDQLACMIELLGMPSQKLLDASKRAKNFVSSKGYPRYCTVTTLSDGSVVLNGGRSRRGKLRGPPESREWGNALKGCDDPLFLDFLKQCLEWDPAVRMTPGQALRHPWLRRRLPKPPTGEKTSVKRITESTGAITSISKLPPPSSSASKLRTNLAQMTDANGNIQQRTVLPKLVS", "note": "Compare with care: the assays were run in different laboratories. “And” joins repeats or separate records; there may be more than shown."}
{"SMILES": "Cc1cccc(-c2ccc3nc(NC(=O)C4CCCCC4)nn3c2)c1", "test": "enzyme activity, Dundee kinase panel", "conditions": "10 µM", "quantity": "remaining activity", "result": "24%"}
{"SMILES": "CCn1cc(C(=O)O)c(=O)c2c(N)c(F)c(NC3CCCCC3)cc21", "test": "kinase activity", "conditions": "0.1 µM, added: ATP at Km", "quantity": "inhibition", "result": "13.5%"}
{"SMILES": "C=CC(=O)N1CCCC(n2c(=O)c3ncccc3n(Cc3ccc(Oc4ccccc4)cc3)c2=O)C1 (centres unmarked)", "test": "cell-free assay, competition with immobilised ligand", "conditions": "1 µM", "quantity": "remaining binding", "result": "86%"}
{"SMILES": "COc1cc(Nc2nccc(-c3cnn4nc(OC)ccc34)n2)cc(C(F)(F)F)c1", "test": "binding, competition with immobilised ligand", "conditions": "1 µM", "quantity": "remaining binding", "result": "71%"}
{"SMILES": "CNC1C[S+]2CC[S+]3CC[S+](C1)[Ru-4]321([N]=C=S)[n]2c3ccc(OC)cc3c3c4c(c5cc(F)c[n+]1c5c32)C(=O)NC4=O (centres unmarked)", "test": "KinomeScan", "conditions": "0.1 µM", "scale": "reference: untreated", "quantity": "remaining binding", "result": "100%"}
{"SMILES": "NC(=O)C[C@H]1CCc2sc3ncnc(O[C@H]4CC[C@H](N5CCOCC5)CC4)c3c21", "test": "enzyme activity, inhibitor", "conditions": "10 µM", "quantity": "inhibition", "result": "3%"}
{"SMILES": "Cc1ccc(-c2c(/C=C(\\C#N)C(=O)NC(C)C)n(CCCO)c3ncnc(N)c23)cc1", "test": "cell-free assay, competition with immobilised ligand", "conditions": "1 µM", "quantity": "remaining binding", "result": "86%"}
{"SMILES": "C=CC(=O)N1CCc2ccc(-n3c(=O)ccc4cnc5ccc(-c6cnn(C)c6)cc5c43)cc21", "test": "KINOMEscan", "conditions": "1 µM", "scale": "reference: DMSO control", "quantity": "remaining binding", "result": "96%"}
{"SMILES": "Nc1ncc2c(n1)-c1c([nH]c3ccc(C4=CCOCC4)cc13)CCC2", "test": "binding, competition with immobilised ligand", "conditions": "1 µM", "quantity": "remaining binding", "result": "63%"}
{"SMILES": "Cc1ccc(C)c(-c2ccc3nc(NC(=O)C4CCCCC4)nn3c2)c1", "test": "enzyme activity, Dundee kinase panel", "conditions": "10 µM", "quantity": "remaining activity", "result": "11%"}
{"SMILES": "Cc1cccc(O[C@H]2CCC[C@@H](C(C)CNCc3ccncc3)C2)c1 (relative stereo)", "test": "enzyme activity, inhibitor", "conditions": "1 µM", "quantity": "inhibition", "result": "-2%"}
{"SMILES": "C=CC(=O)Nc1cccc(-c2cnc3[nH]cc(C(=O)NC(C)(C)C)c3n2)c1", "test": "kinase activity", "conditions": "0.1 µM", "quantity": "inhibition", "result": "5% and 11%"}
{"SMILES": "CN1CCN(Cc2ccc(-c3ccc(CO[C@H]4CCC[C@@H]4NC(=O)c4cc(-c5cnn(C)c5)cnc4N)cc3)cc2)CC1", "test": "enzyme activity, inhibitor", "conditions": "0.1 µM", "quantity": "inhibition", "result": "4%"}
{"SMILES": "Cc1cnc2nc1Nc1cccc(c1)COC/C=C/COCc1cc(ccc1OCCN1CCOCC1)N2", "test": "binding", "conditions": "0.1 µM", "quantity": "remaining binding", "result": "84%"}
{"SMILES": "CNC(=O)C[C@H](Cc1ccc(C#N)cc1)NC(=O)c1cc(-c2ccc(CN[C@H](C)c3ccc(C)cc3)o2)ccc1Cl", "test": "enzyme activity, inhibitor", "conditions": "1 µM", "quantity": "activity vs control", "result": "103%"}
{"SMILES": "CN1CC[C@@H](COc2cnc(C#N)cc2-c2ccn3nc(NC(=O)C4CC4)cc3c2)C1", "test": "enzyme activity, inhibitor", "conditions": "1 µM", "quantity": "inhibition", "result": "6%"}
{"SMILES": "COc1c(OCCCN2CCOCC2)ccc2c1N=C(NC(=O)c1cnc(N)nc1)N1CCN=C21", "test": "kinase activity, inhibitor", "conditions": "1 µM", "scale": "reference: untreated control", "quantity": "remaining activity", "result": "124%"}
{"note": "A few entries again:"}
{"SMILES": "C=CC(=O)Nc1cccc(-c2cnc3[nH]cc(C(=O)NC(C)(C)C)c3n2)c1", "test": "kinase activity", "conditions": "0.1 µM", "quantity": "inhibition", "result": "5% and 11%"}
{"SMILES": "NC(=O)C[C@H]1CCc2sc3ncnc(O[C@H]4CC[C@H](N5CCOCC5)CC4)c3c21", "test": "enzyme activity, inhibitor", "conditions": "10 µM", "quantity": "inhibition", "result": "3%"}
